Results from different studies.
Each numbered part is a random draw from the data of one study; scales do not carry over between parts. Positions count from the first letter of the parent shown.

Block 1
Target: Sox-I, HMG box (Salpingoeca helianthica)
Technique: Spec-seq
Form: double-stranded DNA, one strand shown
Medium: in vitro
Tested at: not given
Notes: whole probe, mean of replicates
Relative to: not given
Reading: lower = stronger binding
Constant ends, left off below: GAGTCGTCTCGTCAGCAC … CCGTAGAGCACTCAGGTC
Target sequence (chain): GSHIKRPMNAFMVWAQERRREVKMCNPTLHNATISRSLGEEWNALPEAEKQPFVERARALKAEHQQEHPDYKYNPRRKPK
| Strand | relative binding energy |
| --- | --- |
| CATCCGA | 0.956 ln ratio |
| CATGGCA | 0.947 ln ratio |
| TAGCGTT | 0.987 ln ratio |
| CTCCGTT | 0.512 ln ratio |
| CATTCGC | 1.1 ln ratio |
| TTTGGTT | 0.701 ln ratio |
| GCCGGTT | 1.07 ln ratio |
| CATTATA | -1.32 ln ratio |

Block 2
Target: RING finger protein unkempt homolog, zinc fingers 1-6, GST-SBP tag (UNK, Homo sapiens, UniProt Q9C0B0, residues 30-357)
Chain of UniProt Q9C0B0 (30-357, looked up): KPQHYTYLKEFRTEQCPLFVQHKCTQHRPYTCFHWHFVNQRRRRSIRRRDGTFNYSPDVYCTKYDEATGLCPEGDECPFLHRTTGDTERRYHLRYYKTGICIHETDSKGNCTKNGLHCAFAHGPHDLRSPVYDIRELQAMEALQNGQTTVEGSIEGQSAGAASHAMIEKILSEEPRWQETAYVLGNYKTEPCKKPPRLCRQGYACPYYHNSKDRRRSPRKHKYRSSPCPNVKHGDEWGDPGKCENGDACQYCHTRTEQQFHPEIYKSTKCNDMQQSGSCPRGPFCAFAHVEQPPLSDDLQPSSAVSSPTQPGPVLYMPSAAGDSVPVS
Technique: RNA Bind-n-Seq
Form: RNA
Medium: in vitro
Tested at: not given
Notes: RNA with constant flanks, human-mouse chimeric sites, ends assumed
Relative to: input RNA pool
Reading: higher = stronger binding
Constant ends, left off below: GGGAGUUCUACAGUCCGACGAUC … CAACAGAGGAUUGAGCAUCA
| Strand | bound/input enrichment [ratio] |
| --- | --- |
| CAGCCUCAGAGCCCAGACUUCCUGGACAUUACCAACCCUAAAGCGGUAUUAGAAAAUGCAUUGAGAAACUUCGCCUGUCUGACGACUGGAGAUGUGAUUGCUAUCAACUAUAAUGAAAAG | 0.479 |
| AGAAUCUUGGGACUGUUUUACUUAAUUGGUCAUUGAUAGCUUAACAAACAUGGAGAUGAGAUUAGAAAUCUUGACAUCAACAGGUAUUAAGCAGAAAAAACCAUGGCCACGUGUCUCCUG | 0.143 |
| AAAGAGUGGAUAGAGUGUGCACACGGGAUCGGUGGGACCCGGGCGAAAAAGGAGUGCAAGAUAGAGUUCGAUGACUUCGUAGAGUGUUUGCUUCGGUACAAAACGAUGAGGCGAAUGCAU | 0.387 |
| CAGGGCAUCAUCUCUCGUGCUGUUAGACACCUGUUCAAGAGUAUUGAAGAAAAAAAACACAUAGCAAUUAAAAACGGGCUGCCCCCUCCUGAAUUCAAAGUGAAUGCCCAGUUCCUAGAG | 4.17 |
| AUAAAGGCCAUGUUGAGUGGUCCAGGUCAGUUUGCUGAGAAUGAAACCAAUGAGGUCAAUUUUAGAGAGAUCCCCUCACAUGUGCUAUCAAAAGUGUGCAUGUAUUUUACCUACAAGGUC | 0.141 |
| CUAGCAGUCCAGCAGCUAGAAGGAGCCUUGAGACAAACACUCCACACACAGGGAAGGCGAUAACAUUGUAAAUUGGUUUACAUUUUUUCCCCCUGUGGAUUUUUCUAGAGGUCAUAGUGC | 0.737 |
| UAAGUUAUUUUGUACAGCUUUGUAAAUUCUUAACAUUUUUAUAUUGCCAUGUUUAUUUUUUUUAGAUAAUUUGGUUCAUACAUGGCCUAGCUAAGGUAAUGAACAUCUUUUUCAGUAAUU | 8.86 |
| AGAAUCUUGGGACUGUUUUACUUAAUUGGUCAUUGAUAUCUCAACAAACAUGGAGAUAAGAUUAGAAAUCUUGACAUCAACAGGUAUUAAGCAGAAAAAACCAUGGCCACGUGUCUCCUG | 0.132 |

Block 3
Target: ABI1, truncated, D143A, DHFR fusion (Arabidopsis thaliana)
Technique: DHFR PCA, deep sequencing
Medium: yeast
Notes: methotrexate growth selection, single substitutions
Together with: (+)-ABA 1.4 µM
Relative to: wild-type fitted maximum
Reading: higher = stronger binding
Starting sequence: PYL1, truncated, DHFR fusion (Arabidopsis thaliana); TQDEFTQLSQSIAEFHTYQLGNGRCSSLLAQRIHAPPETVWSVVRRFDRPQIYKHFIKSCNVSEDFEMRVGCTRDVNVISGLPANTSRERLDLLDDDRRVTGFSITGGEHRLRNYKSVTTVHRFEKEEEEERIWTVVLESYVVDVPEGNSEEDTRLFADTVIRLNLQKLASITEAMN
| Variant | relative binding score [%] |
| --- | --- |
| T39D | 41.4 |
| L166V | 10.9 |
| A170E | -0.097 |
| R98E | 5.21 |
| R155V | 35.2 |
| C60A | 4.32 |
| R90C | 6.8 |

Further values, each from its own experiment
| Substance | target | assay | test system | setting | scale | endpoint | result |
| --- | --- | --- | --- | --- | --- | --- | --- |
| PhoQ, residues 284 288 289 292 302 303 ALASRC | PhoP, residues 12 14 15 18 19 LHSVQ (Escherichia coli, UniProt P23836) | Sort-seq, item: YFP reporter | E. coli | PhoQ-PhoP variant library, together with: 10 µM Mg2+ | relative to: high Mg2+ state, higher = stronger signaling | fold induction | 0.937 |
